Assay results pooled from the literature.
Each line is one published result; not all experiments were run side by side. ± marks the error that the study gave.
Organism: Escherichia coli

`NC[C@@H]1O[C@H](O[C@H]2[C@@H](O)[C@H](O[C@@H]3[C@@H](O)[C@H](N)C[C@H](N)[C@H]3O[C@H]3O[C@H](CO)[C@@H](OCC(O)CO)[C@H](O)[C@H]3N)O[C@@H]2CO)[C@H](N)[C@@H](O)[C@@H]1O` (stereo partly shown) gave an MIC of 16 µg/mL (broth microdilution; clinical isolate AG 003).
For `C/C(=N\Nc1nc(-c2ccc(Cl)cc2)cs1)c1ccc2c(c1)sc1nc(=O)c(C#N)cn12`, the MIC was less than 29 µg/mL (broth microdilution).
`O=C1OCC(NCc2ccccc2)N1/N=C/c1ccc([N+](=O)[O-])o1` (stereo not shown) has an MIC of 3.12 µg/mL (microbial growth, broth dilution; ATCC25922; 18 h).
The MIC of `CN(c1ccccc1C(=O)N1CCc2cc(S(=O)(=O)N3CCN(c4cc(C(F)(F)F)cc(Cl)n4)CC3)ccc21)S(C)(=O)=O` is reported as 0.63 µg/mL (microbial growth, broth dilution; 25922; 22 h).
`O=C1NC(=O)N(/N=C/c2ccc([N+](=O)[O-])o2)C1O` (stereo not shown) has an MIC of 50 µg/mL (microbial growth, broth dilution; ATCC25922; 18 h).
The MIC of `COC(Cn1ccn(C)[c]1=[Ag][O]C(C)=O)c1ccccc1` (stereo not shown) is reported as 5 µg/mL (broth dilution; ATCC 25922; 18 h, 37 °C).
For `N=C(N)NCCC[C@H](NC(=O)[C@H](Cc1c[nH]c2ccccc12)NC(=O)[C@H](CCC(N)=O)NC(=O)[C@H](Cc1c[nH]c2ccccc12)NC(=O)[C@H](CCCNC(=N)N)NC(=O)[C@@H](N)CCCNC(=N)N)C(=O)NCCCC[C@H](NC(=O)[C@H](CCCNC(=N)N)NC(=O)[C@H](Cc1c[nH]c2ccccc12)NC(=O)[C@H](CCC(N)=O)NC(=O)[C@H](Cc1c[nH]c2ccccc12)NC(=O)[C@H](CCCNC(=N)N)NC(=O)[C@@H](N)CCCNC(=N)N)C(=O)NCCCCCC(=O)N[C@@H](CSSC[C@H](NC(=O)CCCCCNC(=O)[C@H](CCCCNC(=O)[C@H](CCCNC(=N)N)NC(=O)[C@H](Cc1c[nH]c2ccccc12)NC(=O)[C@H](CCC(N)=O)NC(=O)[C@H](Cc1c[nH]c2ccccc12)NC(=O)[C@H](CCCNC(=N)N)NC(=O)[C@@H](N)CCCNC(=N)N)NC(=O)[C@H](CCCNC(=N)N)NC(=O)[C@H](Cc1c[nH]c2ccccc12)NC(=O)[C@H](CCC(N)=O)NC(=O)[C@H](Cc1c[nH]c2ccccc12)NC(=O)[C@H](CCCNC(=N)N)NC(=O)[C@@H](N)CCCNC(=N)N)C(N)=O)C(N)=O`, the MIC was 5 µM (broth microdilution; ATCC 43827; 24 h, 37 °C).
For `CCN(CC)CCCN1/C(=C/c2cc[n+](C)c3ccccc23)Sc2ccccc21`, the MIC was 2 µg/mL (microbial growth, broth dilution; ATCC25922).
The MIC of `NCC1OC(OC2C(N)CC(N)C(OC3OC(CO)C(O)C(N)C3O)C2OCCCCCCCCn2cc(CNc3nc(NCc4cn(CCCCCCCCOC5C(OC6OC(CN)C(O)CC6N)C(N)CC(N)C5OC5OC(CO)C(O)C(N)C5O)nn4)nc(NCc4cn(CCCCCCCCOC5C(OC6OC(CN)C(O)CC6N)C(N)CC(N)C5OC5OC(CO)C(O)C(N)C5O)nn4)n3)nn2)C(N)CC1O` (stereo not shown) is reported as 128 µg/mL (microbial growth, broth dilution; ATCC25922).
The MIC of `CCCCO[C@H]1[C@H](O)[C@@H](N)[C@@H](O[C@H]2[C@H](O[C@@H]3O[C@H](CO)[C@@H](O[C@H]4O[C@@H](CN)[C@@H](O)[C@H](O)[C@H]4N)[C@H]3O)[C@@H](O)[C@H](N)C[C@@H]2N)O[C@@H]1CO` is reported as 64 µg/mL (broth microdilution; clinical isolate AG 055).
With `COc1ccc2ccc3c(c2c1)C=[N+]1C2CCCCC2[N+]2=Cc4c(F)cccc4[O][Au-]21[O]3.F[P-](F)(F)(F)(F)F` (stereo not shown) the MIC was greater than 20 µM (bacterial growth, broth microdilution; carbapenem-resistant; 24 h).
`CC(C)=CCc1cc(-c2coc3cc(O)c(CC=C(C)C)c(O)c3c2=O)ccc1O` has an MIC of 128 µg/mL (TISTR 780).
`CCCCCCN1C(=O)/C(=N\NC(=N)N)c2cc(C)ccc21` has an MIC of 24 µg/mL (microbial growth, broth dilution; 18 h).
The MIC of `FC(F)(F)c1cc(CSc2nnc(C34CC5CC(CC(C5)C3)C4)n2-c2ccccc2)cc(C(F)(F)F)c1` is reported as 2 µg/mL (microbial growth, broth dilution; IFO3301; 24 h).
`CCCCCCCCCC(=O)NCCCC[C@@H](NC(=O)[C@@H](CC(C)C)NC(=O)[C@@H](CCCCN)NC(=O)[C@@H](CCCCNC(=O)[C@@H](CC(C)C)NC(=O)[C@@H](CCN)NC(=O)[C@@H](CCCCNC(=O)[C@@H](Cc1ccccc1)NC(=O)[C@H](N)CCCN)NC(=O)[C@@H](Cc1ccccc1)NC(=O)[C@H](N)CCCN)NC(=O)[C@@H](CC(C)C)NC(=O)[C@@H](CCN)NC(=O)[C@@H](CCCCNC(=O)[C@@H](Cc1ccccc1)NC(=O)[C@H](N)CCCN)NC(=O)[C@@H](Cc1ccccc1)NC(=O)[C@H](N)CCCN)C(N)=O` has an MIC of 4 µg/mL (broth microdilution; W3110; 37 °C).
With `C=CCO[C@H]1[C@H](O)[C@@H](N)[C@@H](O[C@H]2[C@H](O[C@@H]3O[C@H](CO)[C@@H](O[C@H]4O[C@@H](CN)[C@@H](O)[C@H](O)[C@H]4N)[C@H]3O)[C@@H](O)[C@H](N)C[C@@H]2N)O[C@@H]1CO` the MIC was 64 µg/mL (broth microdilution; clinical isolate AG 003).
The MIC of `CCOC(=O)c1ccc2c(c1)n(CC)[c]([Au-]([Cl])([Cl])[Cl])[n+]2CC` is reported as 53.4 ± 8.4 µM (broth dilution; DSM 1116; 20 h, 37 °C).
The MIC of `COc1ccc2ccc3c(c2c1)C=[N+]1C2CCCCC2[N+]2=Cc4c(OC)cccc4[O][Au-]21[O]3.F[P-](F)(F)(F)(F)F` (stereo not shown) is reported as greater than 20 µM (bacterial growth, broth microdilution; carbapenem-resistant clinical isolate; 24 h).
With `O=C1c2ccccc2C(=O)c2c1ccc1c2C(C(=O)Nc2ccc(Cl)cc2)C(=O)C1c1ccccc1` (stereo not shown) the MIC was greater than 100 µg/mL (microbial growth).
The MIC of `CC1=C[C@@H](C)[C@H]2[C@@H]3C(=O)C(Cl)(Cl)C(=O)[C@H](C)C(=O)O[C@@H](C)/C=C/C=C\[C@@H](C)[C@@H]3C=C[C@@H]2C1` is reported as greater than 3.2 µg/mL (microbial growth, broth dilution; K12, BW25113).
With `Cc1cc(=O)nc(NC(=O)NCCCCCCNC(=O)NCCCCCCNC(=O)OCCOCCOCCOCCOCCOCCOCC(=O)N[C@@H](CCCCN)C(=O)N[C@@H](CCCCN)C(=O)N[C@@H](Cc2ccccc2)C(=O)N2CCC[C@H]2C(=O)N[C@@H](Cc2c[nH]c3ccccc23)C(=O)N[C@@H](Cc2c[nH]c3ccccc23)C(=O)N[C@@H](Cc2c[nH]c3ccccc23)C(=O)N2CCC[C@H]2C(=O)N[C@@H](Cc2ccccc2)C(=O)N[C@@H](CCCCN)C(=O)N[C@@H](CCCCN)C(N)=O)[nH]1` the MIC was 30 µM (ATCC 8937, RPMI medium; 24 h, 37 °C).
With `CC(C)=CCc1cc([C@@H]2CC(=O)c3c(O)cc(O)c(CC=C(C)C)c3O2)cc(CC=C(C)C)c1O` the MIC was 128 µg/mL (TISTR 780).
For `COc1ccc2ccc3c(c2c1)C=[N+]1C2CCCCC2[N+]2=Cc4cc(C(C)(C)C)ccc4[O][Au-]21[O]3.F[P-](F)(F)(F)(F)F` (stereo not shown), the MIC was greater than 20 µM (bacterial growth, broth microdilution; carbapenem-resistant clinical isolate; 24 h).
`NC[C@H]1OB(O)c2c(OCCO)cccc21` has an MIC of 3.1 µM (ATCC 25922; M9 medium).
The MIC of `O=C(NCCNCCO)c1cn(Cc2cccc(Br)c2)c2cc(Cl)c(OCc3ccc(C(F)(F)F)cc3)cc2c1=O` is reported as less than 0.25 µg/mL (ATCC 25922; ≥80% growth inhibition).
With `CCn1cc(/C=C/c2ccc3ccccc3[n+]2CC)c2ccccc21` the MIC was 4 ± 0.005 µg/mL (780, Mueller-Hinton broth).
`NC[C@@H]1O[C@H](O[C@H]2[C@@H](O)[C@H](O[C@@H]3[C@@H](O)[C@H](N)C[C@H](N)[C@H]3O[C@H]3O[C@H](CO)[C@@H](OCCO)[C@H](O)[C@H]3N)O[C@@H]2CO)[C@H](N)[C@@H](O)[C@@H]1O` has an MIC of 32 µg/mL (broth microdilution; clinical isolate AG 002).
`COc1ccc2ccc3c(c2c1)C=[N+]1C2CCCCC2[N+]2=Cc4ccc(C)cc4[O][Au-]21[O]3.F[P-](F)(F)(F)(F)F` (stereo not shown) has an MIC of greater than 20 µM (bacterial growth, broth microdilution; carbapenem-resistant clinical isolate; 24 h).
